Measured values collected from several papers.
Protocols differ between the studies behind these lines. ± gives the spread as reported.
OPRK1: Kappa-type opioid receptor (OPRK1, Homo sapiens, UniProt P41145)
Sequence of UniProt P41145 (whole entry, looked up): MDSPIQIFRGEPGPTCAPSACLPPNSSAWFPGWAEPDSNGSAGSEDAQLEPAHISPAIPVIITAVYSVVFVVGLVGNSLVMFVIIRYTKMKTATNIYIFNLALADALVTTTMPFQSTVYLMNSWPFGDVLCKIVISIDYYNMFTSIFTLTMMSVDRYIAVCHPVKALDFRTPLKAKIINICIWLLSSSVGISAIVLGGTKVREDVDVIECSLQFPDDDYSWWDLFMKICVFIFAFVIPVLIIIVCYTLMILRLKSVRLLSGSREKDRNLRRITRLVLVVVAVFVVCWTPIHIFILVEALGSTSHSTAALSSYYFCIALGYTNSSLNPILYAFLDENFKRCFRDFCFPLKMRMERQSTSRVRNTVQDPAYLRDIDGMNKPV
CNR2: Cannabinoid receptor 2 (CNR2, Homo sapiens, UniProt P34972)
Sequence of UniProt P34972 (whole entry, looked up): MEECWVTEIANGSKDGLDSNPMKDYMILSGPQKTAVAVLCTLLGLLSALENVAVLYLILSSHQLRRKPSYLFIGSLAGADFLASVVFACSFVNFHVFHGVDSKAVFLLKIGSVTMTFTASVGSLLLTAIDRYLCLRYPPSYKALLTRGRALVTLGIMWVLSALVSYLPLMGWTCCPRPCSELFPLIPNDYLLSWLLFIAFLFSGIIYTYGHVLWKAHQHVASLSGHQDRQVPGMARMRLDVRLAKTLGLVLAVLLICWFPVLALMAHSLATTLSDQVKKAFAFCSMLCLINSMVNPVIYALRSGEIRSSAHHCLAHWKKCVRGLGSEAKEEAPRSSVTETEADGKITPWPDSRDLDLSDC
ADRA2A: Alpha-2A adrenergic receptor (ADRA2A, Homo sapiens, UniProt P08913)
Sequence of UniProt P08913 (whole entry, looked up): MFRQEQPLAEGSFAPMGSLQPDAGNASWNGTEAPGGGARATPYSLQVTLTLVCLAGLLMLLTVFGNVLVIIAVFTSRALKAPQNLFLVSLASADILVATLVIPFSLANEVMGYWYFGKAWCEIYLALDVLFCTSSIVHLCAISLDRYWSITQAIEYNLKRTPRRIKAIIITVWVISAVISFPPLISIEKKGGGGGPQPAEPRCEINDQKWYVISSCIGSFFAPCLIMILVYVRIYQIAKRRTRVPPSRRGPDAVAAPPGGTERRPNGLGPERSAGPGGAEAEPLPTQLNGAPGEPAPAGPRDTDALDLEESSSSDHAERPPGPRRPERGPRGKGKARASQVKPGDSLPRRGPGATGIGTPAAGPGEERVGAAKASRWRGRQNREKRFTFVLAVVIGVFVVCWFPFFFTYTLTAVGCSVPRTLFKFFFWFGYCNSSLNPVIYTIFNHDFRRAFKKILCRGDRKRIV
fbpC: Diacylglycerol acyltransferase/mycolyltransferase Ag85C (fbpC, Mycobacterium tuberculosis, UniProt P9WQN9)
Sequence of UniProt P9WQN9 (whole entry, looked up): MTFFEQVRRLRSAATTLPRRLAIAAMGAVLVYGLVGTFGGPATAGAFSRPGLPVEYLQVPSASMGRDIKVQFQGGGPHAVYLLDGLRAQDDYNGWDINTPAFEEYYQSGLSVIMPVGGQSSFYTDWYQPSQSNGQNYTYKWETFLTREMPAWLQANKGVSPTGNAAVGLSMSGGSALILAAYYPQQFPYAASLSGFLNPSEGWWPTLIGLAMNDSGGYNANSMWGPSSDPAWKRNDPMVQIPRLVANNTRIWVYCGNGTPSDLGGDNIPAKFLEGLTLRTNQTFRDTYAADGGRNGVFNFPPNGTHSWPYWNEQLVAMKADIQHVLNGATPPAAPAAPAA
ribE: Riboflavin synthase (ribE, Mycobacterium tuberculosis, UniProt P9WK35)
Sequence of UniProt P9WK35 (whole entry, looked up): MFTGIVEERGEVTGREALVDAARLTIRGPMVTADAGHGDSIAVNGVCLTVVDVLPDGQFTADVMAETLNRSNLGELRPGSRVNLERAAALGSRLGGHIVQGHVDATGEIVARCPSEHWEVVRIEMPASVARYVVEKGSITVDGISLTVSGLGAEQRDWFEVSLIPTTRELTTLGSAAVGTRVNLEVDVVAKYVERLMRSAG
Type II NADH:quinone oxidoreductase Ndh: Type II NADH:quinone oxidoreductase Ndh (Mycobacterium tuberculosis, UniProt P95160)
Sequence of UniProt P18508 (whole entry, looked up): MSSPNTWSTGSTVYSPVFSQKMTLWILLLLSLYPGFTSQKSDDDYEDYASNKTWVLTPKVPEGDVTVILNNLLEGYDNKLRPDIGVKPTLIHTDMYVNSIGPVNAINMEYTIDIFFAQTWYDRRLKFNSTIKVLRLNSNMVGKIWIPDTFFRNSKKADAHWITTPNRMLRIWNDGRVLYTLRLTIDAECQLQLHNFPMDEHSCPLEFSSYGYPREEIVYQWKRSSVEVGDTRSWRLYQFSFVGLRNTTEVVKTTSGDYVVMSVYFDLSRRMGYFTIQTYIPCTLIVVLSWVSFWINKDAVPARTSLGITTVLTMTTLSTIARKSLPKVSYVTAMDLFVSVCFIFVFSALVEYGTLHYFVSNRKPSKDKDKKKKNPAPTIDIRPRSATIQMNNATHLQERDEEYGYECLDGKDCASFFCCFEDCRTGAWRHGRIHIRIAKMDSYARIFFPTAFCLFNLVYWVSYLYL
Sequence of UniProt P95160 (whole entry, looked up): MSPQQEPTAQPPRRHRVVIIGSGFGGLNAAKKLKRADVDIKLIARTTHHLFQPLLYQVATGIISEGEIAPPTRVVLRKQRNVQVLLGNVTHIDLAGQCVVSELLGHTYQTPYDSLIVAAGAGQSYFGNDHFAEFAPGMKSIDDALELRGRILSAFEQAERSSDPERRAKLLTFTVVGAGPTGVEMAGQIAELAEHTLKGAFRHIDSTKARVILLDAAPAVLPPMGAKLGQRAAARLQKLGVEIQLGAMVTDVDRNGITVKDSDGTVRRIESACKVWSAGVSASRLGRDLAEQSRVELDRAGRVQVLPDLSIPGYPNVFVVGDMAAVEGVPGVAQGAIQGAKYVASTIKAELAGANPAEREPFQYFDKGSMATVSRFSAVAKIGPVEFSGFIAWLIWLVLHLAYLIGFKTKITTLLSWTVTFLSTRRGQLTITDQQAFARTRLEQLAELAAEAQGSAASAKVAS
Sequence of UniProt P35372 (whole entry, looked up): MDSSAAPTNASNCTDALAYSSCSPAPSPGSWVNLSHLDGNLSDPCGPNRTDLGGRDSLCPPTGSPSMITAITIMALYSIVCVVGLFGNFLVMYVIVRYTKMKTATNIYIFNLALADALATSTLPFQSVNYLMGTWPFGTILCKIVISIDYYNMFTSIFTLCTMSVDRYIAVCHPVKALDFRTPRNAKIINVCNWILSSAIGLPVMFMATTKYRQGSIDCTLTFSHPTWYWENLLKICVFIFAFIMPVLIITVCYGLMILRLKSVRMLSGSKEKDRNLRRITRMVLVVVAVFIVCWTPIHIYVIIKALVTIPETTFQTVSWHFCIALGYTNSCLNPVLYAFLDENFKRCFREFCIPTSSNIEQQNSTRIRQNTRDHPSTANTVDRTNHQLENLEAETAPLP
Sequence of UniProt P19969 (whole entry, looked up): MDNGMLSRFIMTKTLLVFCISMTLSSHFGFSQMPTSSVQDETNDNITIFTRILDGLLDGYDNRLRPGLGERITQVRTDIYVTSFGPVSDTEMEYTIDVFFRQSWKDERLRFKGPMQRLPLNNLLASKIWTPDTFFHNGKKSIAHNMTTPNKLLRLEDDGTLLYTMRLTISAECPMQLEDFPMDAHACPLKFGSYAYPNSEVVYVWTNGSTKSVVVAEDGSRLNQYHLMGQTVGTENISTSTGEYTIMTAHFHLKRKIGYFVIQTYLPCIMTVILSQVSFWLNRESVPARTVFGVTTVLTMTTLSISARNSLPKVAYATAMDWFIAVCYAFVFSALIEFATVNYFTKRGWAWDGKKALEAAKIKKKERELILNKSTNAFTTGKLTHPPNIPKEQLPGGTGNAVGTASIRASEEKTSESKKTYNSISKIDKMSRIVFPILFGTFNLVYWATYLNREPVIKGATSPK
Sequence of UniProt P00568 (whole entry, looked up): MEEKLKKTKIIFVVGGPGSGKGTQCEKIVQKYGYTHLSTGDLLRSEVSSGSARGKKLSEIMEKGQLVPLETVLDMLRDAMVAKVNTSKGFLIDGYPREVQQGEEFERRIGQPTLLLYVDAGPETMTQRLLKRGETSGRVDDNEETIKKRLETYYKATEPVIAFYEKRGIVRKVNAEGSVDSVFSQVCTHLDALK
Sequence of UniProt O33336 (whole entry, looked up): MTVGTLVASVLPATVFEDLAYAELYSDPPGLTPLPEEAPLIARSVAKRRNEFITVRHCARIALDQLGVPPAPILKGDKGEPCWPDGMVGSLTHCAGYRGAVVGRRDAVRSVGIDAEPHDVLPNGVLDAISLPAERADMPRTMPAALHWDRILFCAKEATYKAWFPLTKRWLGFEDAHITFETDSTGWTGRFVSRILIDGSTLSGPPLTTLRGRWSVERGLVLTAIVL
Sequence of UniProt P26439 (whole entry, unmodified, looked up): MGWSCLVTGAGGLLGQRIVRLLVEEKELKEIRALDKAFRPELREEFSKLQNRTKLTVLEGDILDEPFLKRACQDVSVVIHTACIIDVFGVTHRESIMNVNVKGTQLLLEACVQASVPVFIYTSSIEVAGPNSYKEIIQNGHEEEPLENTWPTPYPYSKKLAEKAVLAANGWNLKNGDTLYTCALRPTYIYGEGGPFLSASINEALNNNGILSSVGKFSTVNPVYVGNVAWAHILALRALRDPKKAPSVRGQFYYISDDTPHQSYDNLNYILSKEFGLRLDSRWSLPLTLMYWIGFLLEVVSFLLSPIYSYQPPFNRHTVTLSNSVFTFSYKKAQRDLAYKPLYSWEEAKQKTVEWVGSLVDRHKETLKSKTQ
Sequence of UniProt P47746 (whole entry, looked up): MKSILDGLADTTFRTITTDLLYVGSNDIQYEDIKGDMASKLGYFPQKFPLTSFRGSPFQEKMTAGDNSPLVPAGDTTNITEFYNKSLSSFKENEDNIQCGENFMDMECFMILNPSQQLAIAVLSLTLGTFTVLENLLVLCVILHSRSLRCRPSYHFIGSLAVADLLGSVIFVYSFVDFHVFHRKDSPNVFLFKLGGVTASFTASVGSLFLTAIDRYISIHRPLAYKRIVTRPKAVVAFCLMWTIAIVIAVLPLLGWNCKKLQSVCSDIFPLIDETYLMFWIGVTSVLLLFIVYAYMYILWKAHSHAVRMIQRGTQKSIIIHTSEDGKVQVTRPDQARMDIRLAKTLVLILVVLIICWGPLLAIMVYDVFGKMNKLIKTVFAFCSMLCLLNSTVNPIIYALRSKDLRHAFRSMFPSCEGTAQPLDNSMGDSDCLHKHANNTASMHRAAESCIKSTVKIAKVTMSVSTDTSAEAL

For `COc1ccc(N(C)S(=O)(=O)c2ccc3[nH]c(=O)c(=O)[nH]c3c2)cc1`, activity class read “inactive” (N-acetyltransferase Eis (eis, Mycobacterium tuberculosis, UniProt P9WFK7); inhibitor, HTS; 20 µM).
Under “log relative intrinsic activity”, `CN(C(=O)/C=C/c1ccoc1)[C@@H]1CC[C@@]2(O)[C@H]3Cc4cccc5c4[C@@]2(CCN3CC2CC2)[C@H]1O5` is recorded as 0.17 ± 0.06 (OPRK1; G protein activation, agonist, GloSensor cAMP; HEK293T; concentration not given; baseline: U50488H).
`Cc1cc2cccc(C(=O)N[C@H]3CC[C@@]4(O)[C@H]5Cc6ccc(O)c7c6[C@@]4(CCN5CC4CC4)[C@H]3O7)c2[nH]1` has an Emax of roughly 77% (Delta-type opioid receptor (Oprd1, Mus musculus, UniProt P32300); agonist; baseline: SNC80).
With `COC(=O)/C=C/C(=O)N[C@@H]1CC[C@@]2(O)[C@H]3Cc4ccc(O)c5c4[C@@]2(CCN3CC2CC2)[C@H]1O5` the Ki ratio was 2.9 (Mu-type opioid receptor (OPRM1, Homo sapiens, UniProt P35372); radioligand competition; CHO transfected; baseline: human over rhesus MOR).
For `COC(=O)[C@H]1[C@@H](c2ccc(Cl)c(Cl)c2)C[C@@H]2CC[C@H]1N2CCOCCOCCNC(=O)c1ccc(C(=O)[O-])c(-c2c3ccc(=[N+]4CCC4)cc-3oc3cc(N4CCC4)ccc23)c1`, “fraction in nanodomains” read 0.37 (Sodium-dependent dopamine transporter (SLC6A3, Homo sapiens, UniProt Q01959); dSTORM, DBSCAN clustering; CAD expressing SLC6A3; 10 nM).
For `CNC(=O)C(C)(C)NC(=O)c1nn(Cc2ccc(F)cc2)c2ccccc12`, the Emax was 84 ± 5% (CNR2; calcium mobilization, agonist; CHO-K1 expressing Gαq16; baseline: CP55,940 maximum).
`CN1CCN(C(=O)OC2c3nccnc3C(=O)N2c2ccc(Cl)cn2)CC1` (stereo not shown) gave an Emax of 345 ± 22% (Gabrg2/Gabra5, with β3 subunit (Rattus norvegicus, UniProt P18508+P19969); GABA-induced chloride current, two-electrode voltage clamp; Xenopus oocytes; with: GABA at EC3).
`C[n+]1ccc(-c2ccccc2)cc1`: “uptake increase by shaking” 72% (Solute carrier family 22 member 2 (SLC22A2, Homo sapiens, UniProt O15244); substrate; CHO expressing OCT2; 8 nM, 30 s).
For `CC1N=C(c2ccccc2F)c2cc(N(C)C)ccc2NC1=O` (stereo not shown), the inhibition was 41% (ADRA2A; ligand displacement, radioligand; 10 µM).
`CN(C(=O)/C=C/c1ccoc1)[C@@H]1CC[C@@]2(O)[C@H]3Cc4ccc(O)c5c4[C@@]2(CCN3CC2CC2)[C@H]1O5` — result for “log relative intrinsic activity”: 0.28 ± 0.02 (OPRK1; beta-arrestin 2 recruitment, agonist, Tango; HEK293; concentration not given; baseline: U50488H).
`O=c1c2ccccc2[se]n1C12CC3CC(CC(C3)C1)C2` has a remaining activity of 59 ± 14% (fbpC; inhibitor, resorufin butyrate fluorescence; 5 µM, 40 min preincubation; baseline: untreated).
`CN1CCCC2C(c3ccccc3)C(C3=NCCCC3)C(c3ccccc3)CC21` (stereo not shown) — result for “differential displacement ratio”: 1.32 (rat α4β2 and α7 nicotinic receptors; radioligand displacement; at epibatidine ID50; baseline: [3H]-cytisine over [3H]-MLA displacement).
`O=C(NCc1ccc(F)cc1)c1nn(Cc2ccc(F)cc2)c2ccccc12` has an Emax of 53% (CNR2; calcium mobilization, agonist; CHO-K1 expressing Gαq16; baseline: CP55,940 maximum).
For `O=c1[nH]c(/C=C/c2ccccc2O)c([N+](=O)[O-])c(=O)[nH]1`, the Ks was 63 ± 6 µM (ribE; enzyme activity, substrate; Mycobacterium tuberculosis, recombinant riboflavin synthase; pH 7.0).
Under “activation threshold voltage”, `CC(C)[C@@H]1NC(=O)[C@@H]2CSSC[C@H](NC(=O)[C@@H](N)CCCCN)C(=O)N[C@@H](CCCNC(=N)N)C(=O)N[C@@H](CCC(=O)O)C(=O)N[C@H]3CSSC[C@H](NC(=O)[C@H](CCCCN)NC(=O)CNC(=O)[C@H](CC(N)=O)NC1=O)C(=O)N[C@@H](C(C)C)C(=O)N[C@H](C(=O)N1CCC[C@H]1C(=O)N[C@@H](C)C(=O)O)CSSC[C@H](NC(=O)[C@H](CO)NC(=O)[C@@H]1CCCN1C(=O)[C@H](CO)NC(=O)[C@H]([C@@H](C)O)NC(=O)[C@H](CC(N)=O)NC(=O)CNC3=O)C(=O)N[C@@H](Cc1ccc(O)cc1)C(=O)N[C@@H](Cc1ccccc1)C(=O)N[C@@H](CO)C(=O)NCC(=O)N[C@@H](CC(N)=O)C(=O)N2` is recorded as roughly -23 mV (Potassium voltage-gated channel subfamily A member 2 (KCNA2, Homo sapiens, UniProt P16389); whole-cell patch clamp, voltage ramp; CHO cells; 2 nM, 200 ms ramp, equilibrium block).
`CC(=O)O[C@H]1CC[C@@]2(C)C(=CC[C@@H]3[C@@H]2CC[C@]2(C)C(=O)CC[C@@H]32)C1` has an inhibition of 101% (Sodium channel protein type 10 subunit alpha (SCN10A, Homo sapiens, UniProt Q9Y5Y9); sodium influx, inhibitor, FLIPR; HEK293; 10 µM, with: deltamethrin 10 µM).
The inhibition of `CC1N=C(c2ccccc2F)c2cc(NC3CCCCC3)ccc2NC1=O` (stereo not shown) is reported as 61% (ADRA2A; ligand displacement, radioligand; 10 µM).
`C[C@]12CCC(=O)CC1=CC[C@@H]1[C@@H]2CC[C@]2(C)C(=O)CC[C@@H]12` gave a Km of 102 µM (3 beta-hydroxysteroid dehydrogenase/Delta 5-->4-isomerase type 2 (HSD3B2, Homo sapiens, UniProt P26439, P195R); substrate).
With `O=c1[nH]c(CCc2ccc(O)cc2)c([N+](=O)[O-])c(=O)[nH]1` the Ks was 8.5 ± 0.4 µM (ribE; enzyme activity, substrate; Mycobacterium tuberculosis, recombinant riboflavin synthase; pH 7.0).
With `N[C@@H](CO)C(=O)O` the Hill coefficient was 1.6 ± 0.1 (D-3-phosphoglycerate dehydrogenase (serA, Mycobacterium tuberculosis, UniProt P9WNX3); enzyme activity, inhibitor; pH 7.5, 200 mM potassium phosphate, with: substrate about 400 µM).
With `CC(C)(NC(=O)c1nn(Cc2ccc(F)cc2)c2ccccc12)C(N)=O` the Emax was 61 ± 6% (CNR2; calcium mobilization, agonist; CHO-K1 expressing Gαq16; baseline: CP55,940 maximum).
Under enzyme activity, `CN[C@@H](C)[C@H](O)c1ccccc1` is recorded as “inactive” (4'-phosphopantetheinyl transferase PptT (Mycobacterium tuberculosis, UniProt O33336); inhibitor; concentration not given).
The relative Vmax of `Nc1ncnc2c1ncn2[C@@H]1O[C@H](COP(=O)(O)O)[C@@H](O)[C@H]1O` is reported as 100% (Adenylate kinase isoenzyme 1 (AK1, Homo sapiens, UniProt P00568); substrate, coupled spectrophotometric; baseline: kcat of compound with human AK1).
`Cc1ncc2n1-c1ccc(Cl)cc1C(c1ccccc1F)=NC2` gave a Km of 11.1 ± 4.71 µM (rat CYP3A; 4-hydroxylation, substrate; liver microsomes; 10 min, 37 °C, 3-week-old control rats).
With `NC(=O)C1=CN([C@@H]2O[C@H](COP(=O)(O)OP(=O)(O)OC[C@H]3O[C@@H](n4cnc5c(N)ncnc54)[C@H](O)[C@@H]3O)[C@@H](O)[C@H]2O)C=CC1` the Km was roughly 150 µM (Type II NADH:quinone oxidoreductase Ndh; substrate; with quinone acceptors).
With `O=c1c2ccccc2[se]n1-c1ccccc1` the remaining activity was 17 ± 3% (fbpC; inhibitor, resorufin butyrate fluorescence; 5 µM, 40 min preincubation; baseline: untreated).
`CCCCCc1cc(O)c2c(c1)OC(C)(C)[C@@H]1CCC(C)=C[C@@H]21` gave an Emax of 69% (Cannabinoid receptor 1 (Cnr1, Mus musculus, UniProt P47746); G protein activation, agonist; ICR mouse, female, cerebellar membranes; baseline: basal binding).
For `O=c1c2ccccc2[se]n1C1CCCC1`, the remaining activity was 40 ± 17% (fbpC; inhibitor, resorufin butyrate fluorescence; 5 µM, 40 min preincubation; baseline: untreated).
The Emax of `CN1C(=O)CN=C(c2ccccc2)c2cc(Cl)ccc21` is reported as 532 ± 20% (Gabrg2/Gabra2, with β3 subunit (Rattus norvegicus, UniProt P18508+P23576); GABA-induced chloride current, two-electrode voltage clamp; Xenopus oocytes; with: GABA at EC3).
For `O=c1[nH]c(/C=C/c2ccc(F)cc2)c([N+](=O)[O-])c(=O)[nH]1`, the Ks was 14 ± 1 µM (ribE; enzyme activity, substrate; Mycobacterium tuberculosis, recombinant riboflavin synthase; pH 7.0).
The Emax of `CC(C)(NC(=O)c1nn(Cc2ccc(F)cc2)c2ccccc12)C(=O)N1CCC[C@H]1C(N)=O` is reported as 82 ± 6% (CNR2; calcium mobilization, agonist; CHO-K1 expressing Gαq16; baseline: CP55,940 maximum).
The covalent labeling of `CC1(C)Oc2cc([C@]34CC5CC(C[C@@](CN=C=S)(C5)C3)C4)cc(O)c2[C@@H]2C[C@H](O)CC[C@H]21` is reported as 63% (Cannabinoid receptor 1 (Cnr1, Rattus norvegicus, UniProt P20272); radioligand binding Bmax reduction; rat brain membranes; 10-fold Ki, with: [3H]CP-55,940; baseline: untreated).
For `O=C(NC1CCCCC1)c1nn(Cc2ccc(F)cc2)c2ccccc12`, the Emax was 95 ± 3% (CNR2; calcium mobilization, agonist; CHO-K1 expressing Gαq16; baseline: CP55,940 maximum).
`COC1=C(OC)C(=O)C(C/C=C(\C)CCC=C(C)C)=C(C)C1=O` has a Km of 51 ± 50 µM (Type II NADH:quinone oxidoreductase Ndh; enzyme activity, substrate).
The kon of `N[C@@H](Cc1c[nH]c2ccccc12)C(=O)O` is reported as 120000 M⁻¹ s⁻¹ (Indoleamine 2,3-dioxygenase 1 (IDO1, Homo sapiens, UniProt P14902); stopped-flow absorption; 20 °C, first site, cyanide-bound ferric, with: cyanide 1 mM).
`CC(C)(NC(=O)c1nn(Cc2ccc(F)cc2)c2ccccc12)C(=O)Nc1cccc(C(N)=O)c1` gave an Emax of 70 ± 2% (CNR2; calcium mobilization, agonist; CHO-K1 expressing Gαq16; baseline: CP55,940 maximum).
`CCCCCCCCCCC[C@@H](C[C@@H]1OC(=O)[C@H]1CCCCCC)OC(=O)[C@H](CC(C)C)NC=O` gave a remaining activity of roughly 30% (Polyketide synthase Pks13, thioesterase domain (pks13, Mycobacterium tuberculosis, UniProt I6X8D2); thioesterase activity, inhibitor; 100 µM, 1 h preincubation; baseline: uninhibited).

Repeated from above:
`CN1CCCC2C(c3ccccc3)C(C3=NCCCC3)C(c3ccccc3)CC21` (stereo not shown) — result for “differential displacement ratio”: 1.32 (rat α4β2 and α7 nicotinic receptors; radioligand displacement; at epibatidine ID50; baseline: [3H]-cytisine over [3H]-MLA displacement).
`O=C(NCc1ccc(F)cc1)c1nn(Cc2ccc(F)cc2)c2ccccc12` has an Emax of 53% (CNR2; calcium mobilization, agonist; CHO-K1 expressing Gαq16; baseline: CP55,940 maximum).
For `O=c1[nH]c(/C=C/c2ccccc2O)c([N+](=O)[O-])c(=O)[nH]1`, the Ks was 63 ± 6 µM (ribE; enzyme activity, substrate; Mycobacterium tuberculosis, recombinant riboflavin synthase; pH 7.0).
